Published values from different studies.
Compare with care: the assays were run in different laboratories. Non-standard residues stand in square brackets, D forms with d.
B1: coat protein (Cowpea chlorotic mottle virus, UniProt P03601); chain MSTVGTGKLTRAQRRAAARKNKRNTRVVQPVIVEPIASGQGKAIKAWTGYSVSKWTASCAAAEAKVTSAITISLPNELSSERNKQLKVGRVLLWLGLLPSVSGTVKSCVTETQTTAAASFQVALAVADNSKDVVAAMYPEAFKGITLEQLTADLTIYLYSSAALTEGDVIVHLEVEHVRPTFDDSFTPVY
B2: gp41 residues 1-194 (HIV-1, UniProt O70902); chain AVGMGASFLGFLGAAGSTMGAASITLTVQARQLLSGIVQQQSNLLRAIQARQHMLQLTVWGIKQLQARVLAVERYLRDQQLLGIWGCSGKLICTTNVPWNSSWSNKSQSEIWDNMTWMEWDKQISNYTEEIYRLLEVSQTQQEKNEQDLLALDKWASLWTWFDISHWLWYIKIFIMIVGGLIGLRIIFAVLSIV
B3: coat protein VLP 1-188 A31C/S137C (Physalis mottle virus, UniProt P36351); chain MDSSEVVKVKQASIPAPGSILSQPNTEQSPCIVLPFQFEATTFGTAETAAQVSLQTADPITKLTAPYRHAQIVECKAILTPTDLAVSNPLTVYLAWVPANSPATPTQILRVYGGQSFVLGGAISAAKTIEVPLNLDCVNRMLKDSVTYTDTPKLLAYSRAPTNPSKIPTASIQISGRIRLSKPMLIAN
B4: VP35 (Ebola virus, UniProt Q05127); chain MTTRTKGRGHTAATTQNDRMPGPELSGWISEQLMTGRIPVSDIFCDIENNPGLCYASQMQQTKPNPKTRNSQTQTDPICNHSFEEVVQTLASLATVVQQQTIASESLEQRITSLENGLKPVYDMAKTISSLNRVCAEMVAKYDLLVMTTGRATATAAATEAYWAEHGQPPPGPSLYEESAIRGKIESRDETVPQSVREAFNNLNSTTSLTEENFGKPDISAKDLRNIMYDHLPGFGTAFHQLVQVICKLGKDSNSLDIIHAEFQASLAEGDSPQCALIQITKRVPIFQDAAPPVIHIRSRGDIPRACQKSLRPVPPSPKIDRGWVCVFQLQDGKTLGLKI
B5: VP39 (Autographa californica multiple nucleopolyhedrovirus, UniProt P17499); sequence looked up; chain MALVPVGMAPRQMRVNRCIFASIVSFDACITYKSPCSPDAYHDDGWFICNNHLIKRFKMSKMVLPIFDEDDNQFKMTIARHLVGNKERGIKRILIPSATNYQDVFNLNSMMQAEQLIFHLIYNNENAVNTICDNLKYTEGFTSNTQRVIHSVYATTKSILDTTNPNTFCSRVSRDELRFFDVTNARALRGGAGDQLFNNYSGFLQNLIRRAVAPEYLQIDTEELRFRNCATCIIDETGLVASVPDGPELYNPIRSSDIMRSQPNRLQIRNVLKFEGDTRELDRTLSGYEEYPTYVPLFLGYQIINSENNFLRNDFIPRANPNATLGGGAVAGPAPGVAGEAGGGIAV
B6: P protein (Measles virus, UniProt P03422); sequence looked up; chain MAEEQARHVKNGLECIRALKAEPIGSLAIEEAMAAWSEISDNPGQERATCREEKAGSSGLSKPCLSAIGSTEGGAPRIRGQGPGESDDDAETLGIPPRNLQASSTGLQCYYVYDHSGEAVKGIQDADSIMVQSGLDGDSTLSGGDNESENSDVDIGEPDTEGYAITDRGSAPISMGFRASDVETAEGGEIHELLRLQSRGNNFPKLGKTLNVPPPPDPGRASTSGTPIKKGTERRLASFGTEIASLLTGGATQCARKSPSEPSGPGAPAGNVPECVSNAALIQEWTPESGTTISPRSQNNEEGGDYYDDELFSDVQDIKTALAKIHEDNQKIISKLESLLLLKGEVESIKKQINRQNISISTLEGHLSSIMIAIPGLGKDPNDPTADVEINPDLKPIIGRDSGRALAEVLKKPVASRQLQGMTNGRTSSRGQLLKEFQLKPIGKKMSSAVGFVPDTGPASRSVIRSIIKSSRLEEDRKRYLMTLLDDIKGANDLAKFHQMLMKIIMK
B7: p7 proteoliposomes (hepatitis C virus, UniProt P27958); also: 3 methionines of construct stated, only one in given chain; photo-leucine, photo-methionine substitutions; sequence looked up; chain A[L‑photo‑leucine]EN[L‑photo‑leucine]VI[L‑photo‑leucine]NAAS[L‑photo‑leucine]AGTHG[L‑photo‑leucine]VSF[L‑photo‑leucine]VFFCFAWY[L‑photo‑leucine]KGRWVPGAVYA[L‑photo‑leucine]YG[L‑photo‑methionine]WP[L‑photo‑leucine][L‑photo‑leucine][L‑photo‑leucine][L‑photo‑leucine][L‑photo‑leucine][L‑photo‑leucine]A[L‑photo‑leucine]PQRAYA
B8: hsaD (Mycobacterium tuberculosis, UniProt P9WNH5); chain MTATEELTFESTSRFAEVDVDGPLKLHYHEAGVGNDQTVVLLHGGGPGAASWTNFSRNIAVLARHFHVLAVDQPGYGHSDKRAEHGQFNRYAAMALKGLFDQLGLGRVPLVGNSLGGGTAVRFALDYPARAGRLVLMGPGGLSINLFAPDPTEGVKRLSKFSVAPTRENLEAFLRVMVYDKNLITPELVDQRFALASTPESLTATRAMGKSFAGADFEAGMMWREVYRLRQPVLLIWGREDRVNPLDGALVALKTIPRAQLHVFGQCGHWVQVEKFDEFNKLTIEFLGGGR
B9: FphE (Staphylococcus aureus, UniProt Q2FDS6); covalent boron inhibitor; chain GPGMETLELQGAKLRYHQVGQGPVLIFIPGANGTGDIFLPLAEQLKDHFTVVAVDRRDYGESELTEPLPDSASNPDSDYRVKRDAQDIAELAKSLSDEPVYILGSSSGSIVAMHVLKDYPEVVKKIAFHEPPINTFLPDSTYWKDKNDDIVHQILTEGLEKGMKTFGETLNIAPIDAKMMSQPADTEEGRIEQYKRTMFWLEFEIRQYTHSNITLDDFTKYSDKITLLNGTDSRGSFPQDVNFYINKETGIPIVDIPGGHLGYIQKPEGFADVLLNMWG
B10: coat protein (chlorotic cowpea mottle virus, UniProt P03601); sequence looked up; chain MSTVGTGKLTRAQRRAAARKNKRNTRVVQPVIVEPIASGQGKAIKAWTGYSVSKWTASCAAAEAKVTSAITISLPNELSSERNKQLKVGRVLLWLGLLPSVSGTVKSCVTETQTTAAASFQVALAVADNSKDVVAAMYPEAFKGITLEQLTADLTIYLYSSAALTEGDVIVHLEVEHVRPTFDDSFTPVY
B11: rpoA 1-347 (Mycobacterium tuberculosis, UniProt P9WGZ1); chain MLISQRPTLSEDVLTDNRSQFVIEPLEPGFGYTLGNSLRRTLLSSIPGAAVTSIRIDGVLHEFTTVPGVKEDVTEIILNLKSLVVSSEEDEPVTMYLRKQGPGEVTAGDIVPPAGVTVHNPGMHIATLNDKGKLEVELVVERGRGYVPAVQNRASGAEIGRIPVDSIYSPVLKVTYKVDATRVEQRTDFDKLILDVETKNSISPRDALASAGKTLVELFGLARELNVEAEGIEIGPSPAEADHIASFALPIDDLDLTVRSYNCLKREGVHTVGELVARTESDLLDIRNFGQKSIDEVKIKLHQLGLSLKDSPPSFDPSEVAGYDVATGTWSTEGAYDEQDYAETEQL
B12: ORF31 ectodomain 72-742 GSAS substitution 491-495 (varicella-zoster virus, UniProt P09257); chain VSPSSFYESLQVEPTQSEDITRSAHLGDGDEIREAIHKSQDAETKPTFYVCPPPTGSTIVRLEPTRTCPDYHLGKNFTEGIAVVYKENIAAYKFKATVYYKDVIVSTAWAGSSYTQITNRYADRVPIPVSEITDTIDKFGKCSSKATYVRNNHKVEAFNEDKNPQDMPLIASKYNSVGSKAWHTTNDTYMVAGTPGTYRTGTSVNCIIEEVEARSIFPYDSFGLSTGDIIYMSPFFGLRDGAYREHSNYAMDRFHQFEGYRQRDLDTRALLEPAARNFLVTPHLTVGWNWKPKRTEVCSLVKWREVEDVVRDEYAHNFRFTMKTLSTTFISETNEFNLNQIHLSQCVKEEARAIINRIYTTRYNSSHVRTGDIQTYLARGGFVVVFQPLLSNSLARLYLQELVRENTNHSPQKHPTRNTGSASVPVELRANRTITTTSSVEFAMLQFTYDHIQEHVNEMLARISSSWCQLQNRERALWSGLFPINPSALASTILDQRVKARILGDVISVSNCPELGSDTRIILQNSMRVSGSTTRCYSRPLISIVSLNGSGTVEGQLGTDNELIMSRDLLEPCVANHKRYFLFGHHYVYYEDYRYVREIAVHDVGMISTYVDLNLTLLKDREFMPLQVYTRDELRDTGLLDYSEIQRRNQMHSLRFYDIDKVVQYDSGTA

`BM2 transmembrane peptide (Influenza B virus)` gave a pKa of 6.1 (solid-state NMR, measured: His19; VM+ membrane pellets; 243 K, membrane-bound tetramer, no drug, first protonation).
`B1 (coat protein)` — result for binding: “binds” (itself; cryo-EM).
`YISPQYYGETWVTTIG` gave an inhibition of roughly 30% (Polyprotein P1234, nsP2 protease domain (Chikungunya virus, UniProt Q8JUX6); protease activity, inhibitor, FRET; peptide; 50 µM, 30 min, pH 7.5).
`B2 (gp41 residues 1-194)` has a Kd of 1 µM (itself; analytical ultracentrifugation).
For `B3`, binding read “binds” (itself; SEC).
`B4 (VP35)`: “subunits per oligomer” 4 (itself; SEC-MALS).
For `B5 (VP39)`, “subunits per oligomer” read 2 (itself; cryo-EM).
`FphE (Staphylococcus aureus, UniProt Q2FDS6)` — result for “subunits per oligomer”: 2 (itself; SEC-SAXS).
`B6 (P protein)`: “subunits per oligomer” 4 (itself; cryo-EM structure).
`hsaC (Mycobacterium tuberculosis, UniProt P9WNW7)` gave a Km of 1.6 µM (Cc1ccc(O)c(O)c1CC[C@@H]1C(=O)CC[C@]2(C)C(=O)CC[C@@H]12; steady-state kinetics; pH 7.5, 25 °C).
`B7 (p7 proteoliposomes)` — result for “subunits per oligomer”: 6 (itself; cross-linking; liposomes).
For `B8 (hsaD)`, the Km was 34 µM (C/C(=C\C=C(/O)C(=O)O)C(=O)CC[C@@H]1C(=O)CC[C@]2(C)C(=O)CC[C@@H]12; steady-state kinetics; pH 7.5, 25 °C).
For `C protein fragment (Measles virus) (sequence not shown)`, “subunits per oligomer” read 2 (itself; cryo-EM structure).
Under binding, `Prnp fragment (mouse) (sequence not shown)` is recorded as “binds” (itself; fluorescence titration).
`GGAAATCACCGTATTCGCGGAGGGCGCGCAATGAAAGGCTTCCTCAACTTCTTCGCGCGCTGGGTGGTGCCGGTGCTCGGCCTGCTCGCCCTGAGCCTGATCATCTGGTTCCTCGGCCCGCTGCTGCGCCTGGGCAACTACGAACCGTTGGCCTCGGCGACCAGCCGCTGGGTGCTGATCGTCCTGCTGTTCCTGGTCTGGATCGGCTTCCGCGTGCTGCGCATCGTGCAGGCCCGGCGCAACGCGGCGAAGGTCATGCAGAGTCTCGCCGAG (dsDNA (Pseudomonas aeruginosa))`: binding “binds” (mvfR fragment (Pseudomonas aeruginosa); EMSA; double-stranded DNA, one strand shown).
`DDLDALLADKE` gave a koff of 0.0017 s⁻¹ (Protein E6 (E6, Bovine papillomavirus type 1, UniProt P06931); binding, SPR; peptide; pH 6.8, 25 °C, GST-peptide captured, with: MBP-E6 analyte).
Under binding, `B9 (FphE)` is recorded as “binds” (itself; crystal structure).
Under binding, `B10 (coat protein)` is recorded as “binds” (itself; SEC).
`B11 (rpoA 1-347)`: “subunits per oligomer” 2 (itself; native MS).
For `B12`, “subunits per oligomer” read 3 (itself; cryo-EM).
